Results collected from several papers.
Compare with care: the assays were run in different laboratories. In brackets after ≈: the same amount, converted by molar mass.
Chain of UniProt P48146 (whole entry, looked up): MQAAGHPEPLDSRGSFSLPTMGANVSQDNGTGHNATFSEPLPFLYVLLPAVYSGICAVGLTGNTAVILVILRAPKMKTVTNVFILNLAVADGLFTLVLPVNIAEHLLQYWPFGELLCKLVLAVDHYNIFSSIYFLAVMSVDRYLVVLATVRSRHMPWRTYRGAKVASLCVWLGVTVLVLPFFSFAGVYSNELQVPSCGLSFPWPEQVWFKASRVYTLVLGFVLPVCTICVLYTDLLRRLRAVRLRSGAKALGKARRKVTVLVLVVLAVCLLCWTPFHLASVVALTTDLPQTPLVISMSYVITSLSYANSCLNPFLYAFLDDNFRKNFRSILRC
Chain of UniProt O95983 (whole entry, looked up): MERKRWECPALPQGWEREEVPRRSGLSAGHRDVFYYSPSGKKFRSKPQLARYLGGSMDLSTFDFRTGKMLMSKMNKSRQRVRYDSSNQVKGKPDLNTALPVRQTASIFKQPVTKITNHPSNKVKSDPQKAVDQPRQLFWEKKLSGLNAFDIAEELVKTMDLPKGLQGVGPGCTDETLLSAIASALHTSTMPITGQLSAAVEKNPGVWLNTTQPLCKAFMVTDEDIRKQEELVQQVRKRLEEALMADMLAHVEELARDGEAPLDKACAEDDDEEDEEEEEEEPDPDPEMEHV

COc1cc(Nc2ncc(F)c(Nc3ccc4c(n3)NC(=O)C(C)(C)O4)n2)cc(OC)c1OC
IC50 (NPBWR2 (Homo sapiens, UniProt P48146)): > 10 µM

COC(=O)N[C@H](C(=O)N1CCC[C@H]1c1ncc(-c2ccc(-c3ccc(-c4cnc([C@@H]5CCCN5C(=O)[C@@H](NC(=O)OC)C(C)C)[nH]4)cc3)cc2)[nH]1)C(C)C
combination index (Hepatitis C virus; replicon cells; 50% effect level, added: NS5B inhibitor, ratio 1:1): 0.67

C[C@@H](O[C@H]1OCCN(Cc2n[nH]c(=O)[nH]2)[C@H]1c1ccc(F)cc1)c1cc(C(F)(F)F)cc(C(F)(F)F)c1
IC50 (Human immunodeficiency virus 1; viral replication; PBMC, CRF02_AG isolate from Djibouti, R5, NSI): 11.7 µM

CS(=O)(=O)CCCn1c(Cn2c(=O)n(CC(F)(F)F)c3ccncc32)cc2cc(Cl)ccc21
LS mean viral load change (respiratory syncytial virus; RT-qPCR; hospitalized infants 1-24 months, nasal swab; oral, 9, 6 or 5 mg/kg daily, day 6, high dose by age cohort; relative to: baseline): -2.76 log10 copies/mL

CC[C@H](C)[C@@H]1NC(=O)[C@@H]2CCCN2C(=O)[C@H](CC(C)C)NC(=O)[C@H](CC(C)C)NC(=O)CNC(=O)[C@@H](NC(=O)[C@@H](NC(=O)[C@H](CC(=O)O)NC(=O)CNC(=O)[C@@H](NC(=O)[C@H](C)NC(=O)CNC(=O)[C@H](CCCCN)NC(=O)[C@H](CC(C)C)NC(=O)[C@H](CC(C)C)NC(=O)[C@H](CCCCN)NC(=O)CNC(=O)[C@@H](NC(=O)[C@@H](N)CC(C)C)C(C)C)C(C)C)C(C)C)CSSC[C@@H](C(=O)O)NC1=O
log2 fold change (RNA-seq, item: Trim15; mouse, traumatic brain injury model, frontal cortex and hippocampus; dose not given; relative to: TBI alone): -1.61

Nc1ncnc2c1ncn2[C@@H]1O[C@@H]2COP(=O)(O)O[C@H]3[C@@H](O)[C@H](n4cnc5c(=O)[nH]cnc54)O[C@@H]3COP(=O)(O)O[C@H]2[C@H]1O
fold enrichment (Zika virus; upregulated Reactome pathway, RNA sequencing, item: Programmed Cell Death (R-HSA-5357801); HFF-1; relative to: ZIKV-infected untreated): 3.27

CC(C)(C)n1nnnc1C(c1ccccc1)N1CCCc2ccccc21 (stereo not drawn)
viability reduction (Schistosoma mansoni; microscopic viability scoring; newly transformed schistosomula; 10 µM, 72 h, prescreen): 0%

CO[C@H]1C[C@@H]2CC[C@@H](C)[C@@](O)(O2)C(=O)C(=O)N2CCCC[C@H]2C(=O)O[C@H]([C@H](C)C[C@@H]2CC[C@@H](OC(=O)NCCOCCOCCOCCOCCOCCOCCOCCOCCC(=O)N3CCc4cc(Cn5nc(-c6ccc7oc(N)nc7c6)c6c(N)ncnc65)ccc4C3)[C@H](OC)C2)C[C@@H](O)[C@H](C)/C=C(\C)[C@@H](O)[C@@H](OC)C(=O)[C@H](C)C[C@H](C)/C=C/C=C/C=C/1C
decreased appetite incidence (patients with advanced solid tumours; intravenous, 12 mg weekly, any grade): 8.3%

C[C@@H]1C[C@@]2(N=CCS2)[C@]2(O)O[C@@H]3C[C@@]4(C=O)[C@@H](CC[C@@H]5[C@@H]4CC[C@]4(C)[C@@H](C6=CC(=O)OC6)CC[C@]54O)C[C@H]3O[C@@H]2O1
viability effect (Schistosoma mansoni; microscopic viability score; adult worms; 1 µM, 72 h): 100%

Nc1ncnc2c([C@@H]3N[C@H](CO)[C@@H](O)[C@H]3O)c[nH]c12
inhibition (Rhinovirus A; viral replication; HRV2 HGP; 0.9 µM): 30.3%

Cc1c2c(nn1C)CSCc1cc(n(C)n1)CSc1cc(c3ccccc3c1)OCCCc1c(C(=O)O)n(C)c3c-2c(Cl)ccc13
protein level fold change (Staphylococcus aureus; label-free proteomics, item: rpmC; SA113; concentration not given; relative to: untreated): 14.3

C[C@H]1CN(c2n[nH]c3nc(N[C@H]4CC[C@H](NS(=O)(=O)CCC(F)(F)F)CC4)ncc23)CCO1
remaining binding (Methyl-CpG-binding domain protein 3 (MBD3, Homo sapiens, UniProt O95983); Kinobeads competition, item: MBD3; 0.16 µM, unit not given; relative to: vehicle): 1.08

CC[C@H](C)[C@H](NC(=O)[C@H](C)NC(=O)[C@H](CCCCN)NC(=O)[C@H](CC(C)C)NC(=O)[C@H](C)NC(=O)[C@@H](NC(=O)[C@H](Cc1c[nH]cn1)NC(=O)[C@H](CC(C)C)NC(=O)[C@@H](NC(=O)[C@@H](NC(=O)[C@H](CCCCN)NC(=O)[C@H](C)NC(=O)[C@H](C)NC(=O)[C@H](CO)NC(=O)[C@H](CCCCN)NC(=O)[C@H](Cc1ccccc1)NC(=O)[C@@H](NC(=O)[C@H](CCCCN)NC(=O)[C@H](CC(C)C)NC(=O)[C@H](Cc1ccccc1)NC(=O)[C@H](CO)NC(=O)[C@H](CCCCN)NC(=O)[C@H](Cc1c[nH]c2ccccc12)NC(=O)[C@H](CCCCN)NC(C)=O)[C@@H](C)O)[C@@H](C)O)C(C)C)[C@@H](C)O)C(=O)N[C@@H](CO)C(=O)N[C@@H](CO)C(N)=O
MIC90 (Acinetobacter baumannii; ATCC 19606): 2 µg/mL (≈ 0.682 µM)

CC[C@H](C)[C@H](NC(=O)[C@H](Cc1ccccc1)NC(=O)[C@H](CCC(=O)O)NC(=O)[C@H](CCCNC(=N)N)NC(=O)[C@H](C)NC(=O)[C@H](C)NC(=O)[C@H](CCC(N)=O)NC(=O)[C@H](CCC(=O)O)NC(=O)[C@H](CCC(=O)O)NC(=O)[C@H](CC(C)C)NC(=O)[C@H](Cc1ccc(O)cc1)NC(=O)[C@H](CO)NC(=O)[C@H](CO)NC(=O)[C@@H](NC(=O)[C@H](CC(=O)O)NC(=O)[C@H](CO)NC(=O)[C@@H](NC(=O)[C@H](Cc1ccccc1)NC(=O)[C@@H](NC(=O)CNC(=O)[C@H](CCC(=O)O)NC(=O)[C@H](C)NC(=O)CCc1c[nH]cn1)[C@@H](C)O)[C@@H](C)O)C(C)C)C(=O)N[C@@H](C)C(=O)N[C@@H](Cc1c[nH]c2ccccc12)C(=O)N[C@@H](CC(C)C)C(=O)N[C@H](C(=O)N[C@@H](CCCNC(=N)N)C(=O)NCC(=O)N[C@@H](CCCNC(=N)N)C(=O)N[C@@H](CCCCNC(=O)COCCOCCNC(=O)COCCOCCNC(=O)CC[C@H](NC(=O)CCCCCCCCCCCCCCCCC(=O)O)C(=O)O)C(=O)NCC(=O)NCC(=O)N[C@@H](CO)C(=O)N[C@@H](CCCCNc1c(NCCCCCN(O)C(=O)CCC(=O)NCCCCCN(O)C(=O)CCC(=O)NCCCCCN(O)C(C)=O)c(=O)c1=O)C(=O)O)C(C)C [zirconium-89 labelled]
tissue uptake (rat, blood; iv, 3 nmol/kg, 4 h, ex vivo): 1.21 %ID/g

CCOC(=O)CCCn1c(SCCOc2c(C)cccc2C)nc2ccccc21
viability reduction (Schistosoma mansoni; microscopic viability scoring; newly transformed schistosomula; 10 µM, 72 h, prescreen): 16.7%
